Assay results collected from several papers.
Lines come from different studies, so protocols differ. Numbers after ± are the reported error.
Cell line: Vero

| SMILES | read-out | technique | time | CC50 |
| --- | --- | --- | --- | --- |
| CC(C)OC(=O)C(C)NP(=O)(OCC1OC(n2ccc(=O)[nH]c2=O)C(F)(Cl)C1O)Oc1ccccc1 (stereo not shown) |  | MTS | 4 days | > 100 µM |
| COc1ccc(NC(=O)C2C(=O)C(c3ccccc3)c3ccc4c(c32)C(=O)c2ccccc2C4=O)cc1 (stereo not shown) | cytotoxicity |  |  | 68.12 ± 0.03 µg/mL |
| O=c1nc(NO)ccn1[C@@H]1O[C@H](CO)[C@@H](O)[C@H]1O |  | MTS | 4 days | 12.6 µM |
| CN1c2ccccc2C(OCCN2CCNCC2)c2sccc2S1(=O)=O (stereo not shown) |  |  |  | > 100 µM |
| Oc1c(Br)cc(Br)c2cccnc12 | cell growth or viability | CCK-8 | 24 h | > 800 µM |
| O=C1c2ccccc2C(=O)c2c1ccc1c2C(C(=O)Nc2ccccc2Cl)C(=O)C1c1ccccc1 (stereo not shown) | cytotoxicity |  |  | 78.33 ± 0.02 µg/mL |
| CC1(C)CCC(CN2CCN(c3ccc(C(=O)NS(=O)(=O)c4ccc(NCC5CCOCC5)c([N+](=O)[O-])c4)c(Oc4cnc5[nH]ccc5c4)c3)CC2)=C(c2ccc(Cl)cc2)C1 | cell growth or viability | WST-1 | 18 h | 20.6 µM |
| Cc1ccc(S(=O)(=O)NC[C@]2(C)CCC[C@]3(C)c4cc(O)c(C(C)C)cc4CC[C@@H]23)cc1 | cell growth or viability | MTT | 96 h | 11.5 µM |
| NC(=O)c1ccc[n+](-c2ccccc2)c1 | cell growth or viability |  | 72 h | 73.8 µM |
| CC[C@H](C)[C@H](NC(=O)[C@H](CC(C)C)NC(=O)CNC(=O)[C@H](CCCCN)NC(=O)[C@@H](NC(=O)[C@@H](NC(=O)[C@H](CC(N)=O)NC(=O)[C@H](Cc1c[nH]c2ccccc12)NC(=O)[C@@H](NC(=O)[C@H](CCC(=O)O)NC(=O)CNC(=O)[C@H](Cc1c[nH]c2ccccc12)NC(=O)[C@@H](N)CC(C)C)[C@@H](C)CC)[C@@H](C)O)C(C)C)C(N)=O |  | MTT | 48 h | 68.5 µg/mL |
| O=C(CNCCC1CCN(Cc2ccccc2)CC1)Nn1c2ccccc2c2ccccc21 |  |  |  | 16.6 µM |
| C[C@@H](O)[C@H](NC(=O)[C@@H]1CCCN1C(=O)[C@H](Cc1ccc(O)cc1)NC(=O)CNC(=O)[C@H](CCCNC(=N)N)NC(=O)CNC(=O)[C@H](CO)NC(=O)[C@H](Cc1c[nH]cn1)NC(=O)OCC1c2ccccc2-c2ccccc21)C(=O)N[C@@H](CO)C(=O)N1CCC[C@H]1C(=O)N[C@@H](Cc1c[nH]c2ccccc12)C(=O)N[C@@H](CO)C(=O)O | cell growth or viability | MTS | 24 h | > 200 µg/mL |
| Cc1ccc(NC(=O)C2C(=O)C(c3ccccc3)c3ccc4c(c32)C(=O)c2ccccc2C4=O)cc1 (stereo not shown) | cytotoxicity |  |  | 91.03 ± 0.05 µg/mL |
| CC(C)c1cc2c(cc1O)[C@@]1(C)CCC[C@@](C)(CN3C(=O)c4ccccc4C3=O)[C@@H]1CC2 | cell growth or viability | MTT | 96 h | 9.51 µM |
| CCN(CC)CC(=O)NNc1ccccc1Sc1cc(Cl)ccc1[N+](=O)[O-] |  |  |  | > 100 µM |
| C[C@@H](NCCCc1cccc(C(F)(F)F)c1)c1cccc2ccccc12 | cell growth or viability | WST-1 | 18 h | 21.2 µM |
| O=C1c2ccccc2C(=O)c2c1ccc1c2C(C(=O)Nc2ccc(Cl)cc2)C(=O)C1c1ccccc1 (stereo not shown) | cytotoxicity |  |  | 87.16 ± 0.05 µg/mL |
| CC[C@H](C)[C@H](NC(=O)[C@H](CC(C)C)NC(=O)[C@H](Cc1c[nH]cn1)NC(=O)[C@H](Cc1c[nH]cn1)NC(=O)[C@@H](NC(=O)[C@H](Cc1ccccc1)NC(=O)[C@H](CC(N)=O)NC(=O)[C@H](Cc1c[nH]c2ccccc12)NC(=O)[C@@H](NC(=O)[C@H](Cc1c[nH]cn1)NC(=O)[C@H](Cc1c[nH]cn1)NC(=O)[C@H](Cc1c[nH]c2ccccc12)NC(=O)[C@@H](N)CC(C)C)[C@@H](C)CC)C(C)C)C(N)=O |  | MTT | 48 h | 27.6 µg/mL |
| CCC(CC)COC(=O)[C@H](C)N[P@](=O)(OC[C@H]1O[C@@](C#N)(c2ccc3c(N)ncnn23)[C@H](O)[C@@H]1O)Oc1ccccc1 | cell growth or viability | WST-1 | 18 h | > 40 µM |

Some of these lines once more:
| SMILES | read-out | technique | time | CC50 |
| --- | --- | --- | --- | --- |
| CCC(CC)COC(=O)[C@H](C)N[P@](=O)(OC[C@H]1O[C@@](C#N)(c2ccc3c(N)ncnn23)[C@H](O)[C@@H]1O)Oc1ccccc1 | cell growth or viability | WST-1 | 18 h | > 40 µM |
| CC(C)OC(=O)C(C)NP(=O)(OCC1OC(n2ccc(=O)[nH]c2=O)C(F)(Cl)C1O)Oc1ccccc1 (stereo not shown) |  | MTS | 4 days | > 100 µM |
